Results from different studies.
Compare with care: the assays were run in different laboratories. ± marks the error that the study gave. Converted amounts (≈) assume the structure as drawn.

SMILES | assay | test system | conditions | scale | measurement | result
C=CC(=O)NC1CCN(c2ncc3ncnc(Nc4ccc(Oc5ccc6c(c5)ncn6C)c(C)c4)c3n2)CC1 | shake flask | simulated gastric fluid | 24 h, pH 1.2, 37 °C | – | aqueous solubility | > 1000 µg/mL
Cc1cc(-c2nnc(N)nc2-c2ccc(F)cc2)cc(Cl)n1 | measured: Diarrhea | human phase Ia/Ib mCRPC, immunotherapy-naive | oral, dose not given | – | patients with treatment-related adverse events | 12.3%
CNCc1ccc(-c2[nH]c3cc(F)cc4c3c2CCNC4=O)cc1 | – | human patients | oral, 600 mg twice daily, grade 4 | – | diarrhoea incidence | 0%
CCc1cc(C(=O)NC)c2nccc(N3CCc4c(cc(Cn5ccnc5)cc4-c4cn(C)nc4C(F)(F)F)C3=O)c2c1 | – | Sprague Dawley rats | oral, 100 mg/kg twice daily, 7 days | relative to: vehicle | serum PLT change | 18.7%
O=C(N[C@H](Cc1c[nH]c2ccccc12)C(=O)Nc1ccncc1)c1ccc(N2CCN(c3ccc(F)cc3F)CC2)cc1F | – | Swiss Webster mouse, female, intestine | oral, 50 mg/kg, 8 h, 20% HPβCD vehicle | – | concentration | 89.2 µM
O=C(CCCCCCC(=O)Nc1ccc(CC[18F])cc1)NO | – | athymic nu/nu male mice, LNCaP xenograft, bone | intravenous, 2 h | – | tissue uptake | 13.4 ± 0.6 %ID/g
C[C@H]1O[C@@H](O[C@H]2[C@@H](O)C[C@H](O[C@H]3[C@@H](O)C[C@H](O[C@H]4CC[C@@]5(C)[C@H](CC[C@@H]6[C@@H]5C[C@@H](O)[C@]5(C)[C@@H](C7=CC(=O)OC7)CC[C@]65O)C4)O[C@@H]3C)O[C@@H]2C)C[C@H](O)[C@@H]1O | measured: nausea | healthy men | oral, dose not given, 8 days, treatment-emergent, crossover trial | – | subjects with adverse event | 0%
Cc1nc(-c2ccc(OCC(C)C)c(C#N)c2)sc1C(=O)O | – | human, plasma | oral, 20 mg, together with: verinurad 5 mg | relative to: test over reference | geometric mean ratio AUC(0-24) | 92.6
O=C(O)CCCOc1ccc(F)cc1-c1cc(-c2ccccc2C(F)(F)F)n(-c2ccccc2)n1 | – | Crl:CD(SD) rat, male, serum | iv, 25 µg/kg, 14 days | – | chloride | 106.3 ± 0.9 mEq/L
COc1ncc(-c2nc3c(n2C(C)C)[C@H](c2ccc(Cl)cc2)N(c2cc(Cl)cn(C)c2=O)C3=O)c(OC)n1 | – | human patients, plasma | oral, 2 mg, cycle 1 day 1 | – | geometric mean AUC(0-last) | 169 ng·h/mL
C[C@H](CCC(=O)NCC(=O)O)[C@H]1CC[C@H]2[C@@H]3CC[C@@H]4C[C@H](OS(=O)(=O)O)CC[C@]4(C)[C@H]3C[C@H](O)[C@]12C | – | human, plasma | endogenous baseline diurnal | relative to: daily mean concentration | relative peak deviation | 82.7 ± 10.9%
N#C[C@@]1(c2ccc3c(N)ncnn23)O[C@H](CO)[C@@H](O)[C@H]1O | plasma protein binding | rat plasma | 100 µM | – | unbound fraction | 0.935
CCO[C@H]1CCN(Cc2c(OC)cc(C)c3[nH]ccc23)[C@H](c2ccc(C(=O)O)cc2)C1 | – | severe hepatic impairment patients | oral, 200 mg, median | – | unbound AUC(0-12) | 9760 ng·h/mL
O=C(O)CCC(=O)O.[2H]C([2H])([2H])Oc1cc(C)c2[nH]ccc2c1CN1CC[C@@H](C2CC2)C[C@H]1c1ccc(C(=O)O)cc1 | multiple ascending dose | healthy Chinese subjects | 125 mg twice daily | – | subjects with elevated triglycerides TEAE | 25%
O=C(O)CCCCCCCCCCCCCCC(=O)O | – | human, plasma | endogenous control diurnal | relative to: daily mean concentration | relative peak deviation | 91.9 ± 16.1%
CN/C(=N/CCSCc1nc[nH]c1C)NC#N | – | human, plasma | – | – | scaled intrinsic clearance | 9.32 mL/min/kg
C[C@@H](Oc1ccc(S(C)(=O)=O)cc1C(=O)N1C[C@@H]2C[C@]2(c2cc(C(F)(F)F)on2)C1)C(F)(F)F | LC-MS/MS | elderly human subjects, plasma | oral, 50 mg once daily, steady state, multiple doses | – | Vz/F | 415 L
CC(C)(C(=O)N1CCOc2c(C#N)cncc2C1)C(F)F | measured: nervous system disorders | human | oral, 40 mg, CSF pharmacokinetic cohort | – | subjects with adverse event | 83.3%
COc1ccc2c(c1)CN(C(=O)CCN1CCC(Cc3ccccc3)CC1)CC[S@@+]2[O-] | telemetry | conscious dogs | intravenous, up to 8 mg/kg | – | blood pressure and ECG intervals | no effect
COCCOc1cnc2ccn([C@H](C)c3nnc4c(F)cc(-c5cnn(C)c5)cn34)c(=O)c2c1 | – | patients, plasma | oral, 250 mg twice daily, day 1 predose, 500 per day | – | Ctrough | 1860 ng/mL

SMILES | assay | test system | conditions | scale | measurement | result
Cc1ccc([C@@H]2O[C@H](CO)[C@@H](O)[C@H](O)[C@H]2O)cc1Cc1ccc(-c2ccc(F)cc2)s1 | measured: inorganic phosphorus | Japanese type 2 diabetes patients | 25 mg, day 17, 24 h urine collection | relative to: baseline | urinary phosphate excretion change | 52.5 mg
N#Cc1cccc(-c2ccc3ncc(-c4cc(F)cc(F)c4)c(N4CCC(N)CC4)c3c2)c1O | – | healthy male, urine | oral, 20 mg, 72 h, 14C-labelled | relative to: dose | radioactivity recovered | 1.3%
CCN1/C(=C/C(C)=O)Sc2ccc(F)cc21 | – | cynomolgus monkey | oral, 10 mg/kg, 6 h post-dose | relative to: pre-dose | mean blood pressure change | 113 ± 12.7%
Cc1ccc(Sc2ccccc2N2CCNCC2)c(C)c1 | measured: eosinophil count increased | healthy adult men | oral, 20 mg daily, 12 days | – | participants with TEAE | 0%
O=C1COCCN1c1ccc(CO[C@@H]2COc3nc([N+](=O)[O-])cn3C2)cc1 | – | aqueous buffer | pH 7.4 | – | aqueous solubility | 28.4 µg/mL (≈ 75.9 µM)
CNC(=O)c1ccc(-c2cnc3ncc(Cc4ccc5ncccc5c4)n3n2)cc1F | – | Japanese patients | oral, 400 mg, grade 3/4 | – | blood ALP increased dose reduction/interruption | 0%
NCc1cc2c(cc1F)C(=O)N(C1CCC(=O)NC1=O)C2 (stereo not drawn) | – | male Beagle dog, whole blood | 3 h, together with: SSAO/VAP-1 inhibitor | – | remaining compound | > 95%
CCc1c(-c2ccccc2)c(-c2ccccc2)nn1-c1ccccc1-c1cccc(OCC(=O)O)c1 | – | Sprague-Dawley rat | oral, dose not given | – | Tlast | 24 h
COc1ccc2[nH]c([S+]([O-])Cc3ncc(C)c(OC)c3C)nc2c1 (stereo not drawn) | – | healthy Chinese volunteers, plasma | oral, 20 mg, fed, CYP2C19 poor metabolizers | – | Cmax | 859 ± 735 ng/mL
CO[C@@H]1[C@H](OC(=O)N2CC(CCN3CCOCC3)C2)CC[C@]2(CO2)[C@H]1[C@@]1(C)O[C@@H]1CC=C(C)C | – | humans | subcutaneous, 0.2 mg twice weekly for 4 weeks, day 28 | relative to: baseline | D-dimer | -0.03 ± 0.05 mg/dL
C[C@H]1CN(C(=O)CC#N)[C@]12CCN(c1ncnc3[nH]ccc13)C2 | – | healthy human | oral, 12 mg single | – | subjects with Nausea | 0%
N=C(N)NCCNC(=O)C1(Nc2ccccc2)CCN(Cc2ccccc2)CC1 | – | male Sprague-Dawley rats, plasma | oral, 50 mg/kg | – | mean residence time | 0.3 h
Cl.[2H]C([2H])([2H])CC(=O)c1cnc(NC(=O)C2CC2)cc1Nc1cccc(-c2ncn(C([2H])([2H])[2H])n2)c1OC | – | human, fed, multiple dose | oral, 60 mg once daily, tablet, day 1, geometric mean | – | AUC(0-tau) | 2930 ng·h/mL
CNCCOC12CC3(C)CC(C)(CC(Cn4ncc(-c5ccc(N6CCc7cccc(C(=O)Nc8nc9ccccc9s8)c7C6)nc5C(=O)O)c4C)(C3)C1)C2 | – | beagle dog, male, anaesthetised | intravenous bolus, 0.03 mg/kg, 45 min | relative to: baseline | heart rate change | -1%
C=CC(=O)NC1CCN(c2ncc3ncnc(Nc4ccc(Oc5ccc6c(c5)ncn6C)c(C)c4)c3n2)CC1 | – | human, male | oral, 240 mg, treatment-emergent adverse event | – | participants with myalgia | 6.3%
OCc1nc2ccc(NCc3ccc(C(F)(F)F)cc3)cc2[nH]1 | – | human liver S9 | 1 µM, pH 7.4 | – | elimination rate constant | 7.33e-05 s⁻¹
CNC(=O)c1ccc(-c2cnc3ncc(Cc4ccc5ncccc5c4)n3n2)cc1F | measured: Anemia | cancer patients | oral, 600 mg twice daily, all expansion cohorts, grade 3-4 | – | patients with adverse event | 5%
N#Cc1ccc2c(c1)[C@H]1CCCN(C(=O)c3ccc4[nH]cnc4c3)[C@H]1C2 | – | human | 360 mg, day 15 | – | maximum ACTH level | 10.3 pmol/L
CCN1CCN(Cc2ccc(NC(=O)c3ccc(C)c(NC(=O)c4cncc(-c5cccs5)c4)c3)cc2C(F)(F)F)CC1 | – | C57BL/6 mice, epithelial lining fluid | intraperitoneal, 10 mg/kg | – | dose-normalised AUC | 0.45 kg·µg·h/mL/mg

Some of these lines once more:
SMILES | assay | test system | conditions | scale | measurement | result
C=CC(=O)NC1CCN(c2ncc3ncnc(Nc4ccc(Oc5ccc6c(c5)ncn6C)c(C)c4)c3n2)CC1 | – | human, male | oral, 240 mg, treatment-emergent adverse event | – | participants with myalgia | 6.3%
Cc1ccc(Sc2ccccc2N2CCNCC2)c(C)c1 | measured: eosinophil count increased | healthy adult men | oral, 20 mg daily, 12 days | – | participants with TEAE | 0%
